{"data": "Measurements collected from several papers", "note": "Parts stem from different laboratories: compare values within a part only. Positions count from the first letter of the parent shown."}
{"data": "Sample 1", "target": "RING finger protein unkempt homolog, zinc fingers 1-6, GST-SBP tag (UNK, Homo sapiens, UniProt Q9C0B0, residues 30-357)", "method": "RNA Bind-n-Seq", "molecule type": "RNA", "sample": "in vitro", "tested at": "not given", "notes": "RNA with constant flanks, human and mouse sites, ends assumed", "baseline": "input RNA pool", "reading": "higher = stronger binding", "all sequences stand within": "GGGAGUUCUACAGUCCGACGAUC … CAACAGAGGAUUGAGCAUCA", "chain of UniProt Q9C0B0 (30-357, looked up)": "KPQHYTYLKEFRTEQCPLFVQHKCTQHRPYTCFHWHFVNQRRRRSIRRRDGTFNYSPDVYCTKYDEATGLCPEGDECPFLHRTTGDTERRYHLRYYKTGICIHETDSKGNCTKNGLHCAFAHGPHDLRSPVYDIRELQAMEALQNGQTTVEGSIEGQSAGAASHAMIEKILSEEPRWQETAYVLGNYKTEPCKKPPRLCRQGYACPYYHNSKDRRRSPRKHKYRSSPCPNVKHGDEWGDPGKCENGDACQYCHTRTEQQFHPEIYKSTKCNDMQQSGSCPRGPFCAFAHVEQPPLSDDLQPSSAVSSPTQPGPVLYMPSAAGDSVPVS"}
{"Oligonucleotide": "CCAUUUGAUCCUAGAGUUCUCUUCUCUGCUGGUCAUGAUGGAAAUGUGAUAGUGUGGGAUCUAGCAAGAGGAGUCAAAGUUCGAUCUUAUUUCAAUAUGAUUGAAGGACAAGGACAUGGU", "bound/input enrichment": "0.295 ratio"}
{"Oligonucleotide": "CUCGCCUCCGUCCUGCUCUCCCUGCUCCUCAUUCUCAAGGCGGGAAGGAGGUGGAACAAAUAUUUCAAAUCACGGAGACCUCUCUUUACAGGAGGCCUCAUCGGGGGCCUCUUCACCUAC", "bound/input enrichment": "0.289 ratio"}
{"Oligonucleotide": "UCUGUGUGCUCUGAGGGAGGGUCGCGCCGCCAGCCACCGCCGGAGGAGCCCCUCGGGCCGUUGUAAGCAUCAAUAAUGUCUUUCAUCUUUGAGUGGAUCUACAAUGGCUUCAGCAGUGUG", "bound/input enrichment": "0.103 ratio"}
{"Oligonucleotide": "AAUUCUUUCGCAGCCAUUGAACUUCUAUAGGGAAGGGUUUGUGGACCAGAACUUUGACCUUGUGAAUGCAUGAUGUUAGGGAUGUGGAUAGAAUAAGCAUAUUGCUGCUGUGGGCUGACA", "bound/input enrichment": "3.29 ratio"}
{"Oligonucleotide": "AUAGAAUUCUGUACCCCAGUAAUCAACUAGUUUUCUAUUAAUGUGCUUGUCUGUUCUAAGAGUAGGAUUAACACAGGGGAAGUCUUGAGAAGGAGUUUUGAUUCUUUUAUAUGUUUUUAA", "bound/input enrichment": "6.22 ratio"}
{"Oligonucleotide": "CAAAAGAAGAACAAGAUCCAUACUUUGGAGGACUUCCAGCGGGUUAUCAAUGUGAAUCUUAUAGGCACUUUCAAUGUGAUCCGCCUGGUUGCUGGGGAGAUGGGCCAGAAUGAACCAGAC", "bound/input enrichment": "0.313 ratio"}
{"Oligonucleotide": "AUUCUCUAUGACAAGGAUCACUACAAGUUGGCUCUAGGUCAAAUAAAUAUUGCCAAAAACUUGGUGGACAAUGUUGCUAAAGAUUAUGUGCGUCUUAUGAAAUAUGGUGAUUCUCUGUAC", "bound/input enrichment": "0.237 ratio"}
{"data": "Sample 2", "target": "CCND1, cyclin fold, Cln2 fusion (human)", "method": "yeast growth competition, sequencing", "sample": "yeast", "notes": "weak parent motif", "baseline": "not given", "reading": "higher = stronger binding", "starting sequence": "SAMHD1 docking peptide (human); ASKSRVQLFKDDP; partner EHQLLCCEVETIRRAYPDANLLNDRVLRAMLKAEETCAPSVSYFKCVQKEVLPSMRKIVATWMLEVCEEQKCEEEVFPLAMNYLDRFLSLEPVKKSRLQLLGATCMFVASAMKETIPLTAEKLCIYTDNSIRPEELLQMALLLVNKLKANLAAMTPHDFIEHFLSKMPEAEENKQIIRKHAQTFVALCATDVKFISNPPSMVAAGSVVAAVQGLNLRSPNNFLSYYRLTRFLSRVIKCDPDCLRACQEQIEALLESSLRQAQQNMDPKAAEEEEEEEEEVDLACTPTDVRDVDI"}
{"Variant": "ASKSRVQLFKDIP [D12I]", "normalised enrichment score": 0.405}
{"Variant": "ASKHRVQLFKDDP [S4H]", "normalised enrichment score": 0.633}
{"Variant": "ASKSRVTLFKDDP [Q7T]", "normalised enrichment score": 0.135}
{"Variant": "ASKSRTQLFKDDP [V6T]", "normalised enrichment score": 0.484}
{"Variant": "ASKSRVQLFKDGP [D12G]", "normalised enrichment score": 0.264}
{"Variant": "ASASRVQLFKDDP [K3A]", "normalised enrichment score": 0.937}
{"Variant": "ASKSRVALFKDDP [Q7A]", "normalised enrichment score": -0.128}
{"Variant": "ASKSRVQLEKDDP [F9E]", "normalised enrichment score": 0.0885}
{"Variant": "ASKSRVQLHKDDP [F9H]", "normalised enrichment score": 0.077}
{"Variant": "ASKSRVQLFKDNP [D12N]", "normalised enrichment score": 0.27}
{"Variant": "ASKSRVQVFKDDP [L8V]", "normalised enrichment score": 0.226}
{"Variant": "ASKSRVQLFWDDP [K10W]", "normalised enrichment score": 0.534}
{"Variant": "ASKSQVQLFKDDP [R5Q]", "normalised enrichment score": 0.535}
{"Variant": "ASKSCVQLFKDDP [R5C]", "normalised enrichment score": 1.73}
{"Variant": "AGKSRVQLFKDDP [S2G]", "normalised enrichment score": 0.119}
{"Variant": "ASKSFVQLFKDDP [R5F]", "normalised enrichment score": 0.392}
{"data": "Sample 3", "target": "Histone acetyltransferase KAT6A, both winged helices, GST fusion (KAT6A, Homo sapiens, UniProt Q92794, residues 1-181)", "method": "protein binding microarray", "molecule type": "double-stranded DNA, one strand shown", "sample": "in vitro", "tested at": "not given", "notes": "8-mer, flanks averaged, mean of 2 arrays, mostly near background", "baseline": "not given", "reading": "higher = stronger binding", "Construct (chain)": "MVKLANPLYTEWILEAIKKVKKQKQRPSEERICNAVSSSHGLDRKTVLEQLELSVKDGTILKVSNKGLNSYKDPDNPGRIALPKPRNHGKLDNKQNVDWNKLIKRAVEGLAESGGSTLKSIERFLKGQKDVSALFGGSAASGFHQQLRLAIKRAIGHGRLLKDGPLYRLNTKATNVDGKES"}
{"Oligonucleotide": "GATGTGTA", "E-score": -0.0681}
{"Oligonucleotide": "CTGGACAG", "E-score": -0.115}
{"Oligonucleotide": "GAAGTGCC", "E-score": -0.0171}
{"Oligonucleotide": "CATTAGGG", "E-score": -0.147}
{"Oligonucleotide": "GCGTAACC", "E-score": 0.165}
{"Oligonucleotide": "AACGTAGC", "E-score": -0.0255}
{"Oligonucleotide": "ATCAACTA", "E-score": -0.135}
{"Oligonucleotide": "CGTTGGGA", "E-score": -0.0828}
{"Oligonucleotide": "GGGGAAAC", "E-score": 0.0947}
{"Oligonucleotide": "AGTTGTTC", "E-score": -0.0752}
{"Oligonucleotide": "AATGCAAA", "E-score": -0.117}
{"Oligonucleotide": "ATGTACCG", "E-score": 0.115}
{"Oligonucleotide": "CAGCATTC", "E-score": -0.0803}
{"Oligonucleotide": "AACGACAC", "E-score": -0.146}
{"Oligonucleotide": "CATGCTAG", "E-score": -0.153}
{"Oligonucleotide": "AAATTCGG", "E-score": 0.0722}
{"Oligonucleotide": "CCATAGGA", "E-score": -0.156}
{"Oligonucleotide": "CCGGCTCA", "E-score": 0.0991}
{"Oligonucleotide": "CGTTAGCA", "E-score": 0.0411}
{"Oligonucleotide": "GCGATTAA", "E-score": 0.0782}
{"Oligonucleotide": "TATTTCCA", "E-score": -0.218}
{"Oligonucleotide": "CGGCCGAG", "E-score": 0.319}
{"Oligonucleotide": "AACGAGAG", "E-score": -0.114}
{"Oligonucleotide": "CCCCGATC", "E-score": -0.00235}
{"data": "Sample 4", "target": "Interferon regulatory factor 7, full length, phosphomimetic (IRF7, Homo sapiens, UniProt Q92985, residues 1-503, S471D/S472D/S475D/S476D/S477D/S483D/S484D/S487D)", "method": "protein-binding microarray", "molecule type": "double-stranded DNA, one strand shown", "sample": "in vitro", "tested at": "2200 nM top", "notes": "60-bp whole probe", "together with": "salmon DNA 0.4 mg/ml", "baseline": "random background probes", "reading": "higher = stronger binding", "all sequences stand within": "GCCTAGCAC … GTCTTGATTCGCTTGACGCTGCTG", "Target sequence (chain)": "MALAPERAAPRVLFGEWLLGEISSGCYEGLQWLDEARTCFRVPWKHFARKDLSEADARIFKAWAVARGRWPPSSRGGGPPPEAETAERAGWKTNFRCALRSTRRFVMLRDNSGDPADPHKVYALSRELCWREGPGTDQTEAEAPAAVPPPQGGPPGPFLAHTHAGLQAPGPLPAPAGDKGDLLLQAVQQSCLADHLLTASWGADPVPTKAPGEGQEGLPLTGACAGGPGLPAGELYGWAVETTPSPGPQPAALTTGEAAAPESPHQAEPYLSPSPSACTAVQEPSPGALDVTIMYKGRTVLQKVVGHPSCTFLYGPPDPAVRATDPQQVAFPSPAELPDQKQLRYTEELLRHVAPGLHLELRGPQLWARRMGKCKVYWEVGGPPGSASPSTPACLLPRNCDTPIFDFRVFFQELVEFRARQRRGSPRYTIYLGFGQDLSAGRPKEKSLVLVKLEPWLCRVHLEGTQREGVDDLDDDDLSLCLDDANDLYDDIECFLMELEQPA"}
{"Oligonucleotide": "TTAGATTTCGAGTATCGATTAGTGCTA", "fitted relative affinity [z-score]": 1.38}
{"Oligonucleotide": "TCAATTCTCTTTTCACTACTGTGCTAG", "fitted relative affinity [z-score]": 1.86}
{"Oligonucleotide": "GGTCTTCTGGGCTGTTTAGTCGTGCTA", "fitted relative affinity [z-score]": -0.0652}
{"Oligonucleotide": "TTCCTTATTGCTTCCTCTTTGTGCTAG", "fitted relative affinity [z-score]": 3.78}
{"Oligonucleotide": "GACGGTATCGACTATCCGGACGTGCTA", "fitted relative affinity [z-score]": 0.653}
{"Oligonucleotide": "TCATCTCACGCATCTGAAACTGTGCTA", "fitted relative affinity [z-score]": 1.04}
{"Oligonucleotide": "TTAGATTTCGGTTCCGATTAGTGCTAG", "fitted relative affinity [z-score]": 6.32}
{"Oligonucleotide": "CTCCTTCTCTAACCTCTCTAAGTGCTA", "fitted relative affinity [z-score]": 1.73}
{"Oligonucleotide": "TTAGGTTTCGACTTTCGGATAGTGCTA", "fitted relative affinity [z-score]": 8.02}
{"Oligonucleotide": "TTAGGTAACGGTTTCGGTTAGTGCTAG", "fitted relative affinity [z-score]": 5.21}
{"Oligonucleotide": "GCTAGTATGTTCCTTATTTAAGTGCTA", "fitted relative affinity [z-score]": 0.62}
{"Oligonucleotide": "GACGAAATGGGGACTGGAGACGTGCTA", "fitted relative affinity [z-score]": 0.00874}
{"data": "Sample 5", "target": "Sal-like protein 4, full length isoform A (SALL4, Homo sapiens, UniProt Q9UJQ4, residues 1-1053)", "method": "universal PBM", "molecule type": "double-stranded DNA, one strand shown", "sample": "in vitro", "tested at": "600 nM", "notes": "8-mer, flanks averaged, mean of replicates", "reading": "higher = stronger binding", "chain of UniProt Q9UJQ4 (whole entry, looked up)": "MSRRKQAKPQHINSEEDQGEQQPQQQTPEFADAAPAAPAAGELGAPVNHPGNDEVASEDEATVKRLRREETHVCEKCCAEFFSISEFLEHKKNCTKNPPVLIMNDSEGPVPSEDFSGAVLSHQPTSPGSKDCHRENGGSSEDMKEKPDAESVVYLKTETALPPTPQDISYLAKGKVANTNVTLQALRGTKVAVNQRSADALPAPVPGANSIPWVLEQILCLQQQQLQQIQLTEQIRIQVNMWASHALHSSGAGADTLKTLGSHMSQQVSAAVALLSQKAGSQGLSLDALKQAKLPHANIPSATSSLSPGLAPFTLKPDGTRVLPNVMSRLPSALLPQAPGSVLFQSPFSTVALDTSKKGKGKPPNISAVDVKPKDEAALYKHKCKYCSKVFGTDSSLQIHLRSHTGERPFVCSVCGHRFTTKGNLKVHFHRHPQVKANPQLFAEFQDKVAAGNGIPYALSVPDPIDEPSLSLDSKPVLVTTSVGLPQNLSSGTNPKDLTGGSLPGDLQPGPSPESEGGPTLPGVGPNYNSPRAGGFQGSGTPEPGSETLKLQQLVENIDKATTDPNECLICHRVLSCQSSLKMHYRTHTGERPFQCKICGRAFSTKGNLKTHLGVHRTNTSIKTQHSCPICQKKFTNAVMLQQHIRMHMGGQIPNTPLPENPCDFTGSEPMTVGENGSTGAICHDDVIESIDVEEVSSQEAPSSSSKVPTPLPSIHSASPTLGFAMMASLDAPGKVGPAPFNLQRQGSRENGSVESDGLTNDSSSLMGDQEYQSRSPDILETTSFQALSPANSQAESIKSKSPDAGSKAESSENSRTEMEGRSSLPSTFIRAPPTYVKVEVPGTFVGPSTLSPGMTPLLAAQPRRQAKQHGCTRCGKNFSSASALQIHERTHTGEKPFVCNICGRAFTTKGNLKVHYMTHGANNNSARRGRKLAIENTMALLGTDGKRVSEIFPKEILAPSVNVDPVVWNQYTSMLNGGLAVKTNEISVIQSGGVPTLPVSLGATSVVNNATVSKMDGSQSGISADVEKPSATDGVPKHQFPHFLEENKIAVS"}
{"Oligonucleotide": "AGTCCAAC", "E-score": -0.256}
{"Oligonucleotide": "GATAGAAC", "E-score": 0.137}
{"Oligonucleotide": "AGGAGGAG", "E-score": -0.109}
{"Oligonucleotide": "ACGTTTAC", "E-score": 0.111}
{"Oligonucleotide": "CCCCCTGC", "E-score": -0.308}
{"Oligonucleotide": "AGAATCAA", "E-score": 0.0322}
{"Oligonucleotide": "CGTCTATC", "E-score": 0.0543}
{"Oligonucleotide": "CGGATAAA", "E-score": 0.209}
{"Oligonucleotide": "CGATAGCG", "E-score": -0.0287}
{"Oligonucleotide": "ACCTGCCC", "E-score": -0.303}
{"Oligonucleotide": "ACCCAACT", "E-score": -0.0328}
{"Oligonucleotide": "ACCATAGA", "E-score": 0.0492}
{"Oligonucleotide": "CTGTATCC", "E-score": 0.141}
{"Oligonucleotide": "CAGTCCAG", "E-score": -0.354}
{"Oligonucleotide": "ACCGACAT", "E-score": 0.0705}
{"Oligonucleotide": "AGTCGGTA", "E-score": -0.093}
{"note": "Some of these lines once more (sample 2):"}
{"Variant": "ASKSRVQLHKDDP [F9H]", "normalised enrichment score": 0.077}
{"Variant": "ASKSRVQLFKDNP [D12N]", "normalised enrichment score": 0.27}
{"Variant": "ASKSRVQVFKDDP [L8V]", "normalised enrichment score": 0.226}
{"Variant": "ASKSRVQLFWDDP [K10W]", "normalised enrichment score": 0.534}
{"Variant": "ASKSQVQLFKDDP [R5Q]", "normalised enrichment score": 0.535}
